# Experimental data collected from several papers.
# ± marks the error that the study gave.
Molecule,target or system,test,test system,setting,how to read,quantity,value
VTYVPAQEK,,AIM,"peptide, CD8+ T cells from PBMC, human donors","HLA-A*30:01 restricted, unit not given",reference: positive over tested donors,frequency of responding donors,33
Nc1ncnc2c([C@@H]3N[C@H](CO)[C@@H](O)[C@H]3O)c[nH]c12,Zaire ebolavirus,antibody staining,"HeLa, Kikwit",100 µM,,antigen-positive cells,0.03%
CC(C)C[C@H](NC(=O)[C@@H](NC(=O)c1cccc(-c2ccccc2)n1)[C@@H](C)O)B(O)O,"Replicase polyprotein 1ab, main protease (rep, Severe acute respiratory syndrome coronavirus 2, UniProt P0DTD1)","reporter gene (mKate2), inhibitor",,20 µM,,inhibition,-1.05%
LIFLWLLWPVTLACF,human CD4 T cells,AIM,peptide,,,responding donors,8%
CC[C@H](C)[C@H](NC(=O)[C@H](CC(C)C)NC(=O)[C@H](Cc1c[nH]c2ccccc12)NC(=O)[C@H](CCC(N)=O)NC(=O)[C@@H](NC(=O)[C@H](Cc1ccccc1)NC(=O)[C@H](C)NC(=O)[C@H](CCCCNC(=O)COCCOCCNC(=O)COCCOCCNC(=O)CC[C@H](NC(=O)CCCCCCCCCCCCCCCCCCC(=O)O)C(=O)O)NC(=O)[C@H](CCC(N)=O)NC(=O)[C@H](C)NC(=O)[C@@H](NC(=O)[C@H](CCCCN)NC(=O)[C@H](CC(=O)O)NC(=O)[C@H](CC(C)C)NC(=O)C(C)(C)NC(=O)[C@@H](NC(=O)[C@H](CO)NC(=O)[C@H](Cc1ccc(O)cc1)NC(=O)[C@H](CC(=O)O)NC(=O)[C@H](CO)NC(=O)[C@@H](NC(=O)[C@H](Cc1ccccc1)NC(=O)[C@@H](NC(=O)CNC(=O)[C@H](CCC(=O)O)NC(=O)C(C)(C)NC(=O)[C@@H](N)Cc1ccc(O)cc1)[C@@H](C)O)[C@@H](C)O)[C@@H](C)CC)[C@@H](C)CC)C(C)C)C(=O)N[C@@H](C)C(=O)NCC(=O)NCC(=O)N1CCC[C@H]1C(=O)N[C@@H](CO)C(=O)N[C@@H](CO)C(=O)NCC(=O)N[C@@H](C)C(=O)N1CCC[C@H]1C(=O)N1CCC[C@H]1C(=O)N1CCC[C@H]1C(=O)N[C@@H](CO)C(N)=O,,,"patients with type 2 diabetes, serum","5 mg, baseline, proof of concept study",,lipase,39.8 ± 17.3 U/L
